Measurements from different studies.
Every numbered part comes from another study and shows a few of its results, in no order. Changes are numbered by the printed parent chain.

Sample 1
Target: Sal-like protein 4, full length isoform A (SALL4, Homo sapiens, UniProt Q9UJQ4, residues 1-1053)
UniProt Q9UJQ4, sequence (whole entry, looked up): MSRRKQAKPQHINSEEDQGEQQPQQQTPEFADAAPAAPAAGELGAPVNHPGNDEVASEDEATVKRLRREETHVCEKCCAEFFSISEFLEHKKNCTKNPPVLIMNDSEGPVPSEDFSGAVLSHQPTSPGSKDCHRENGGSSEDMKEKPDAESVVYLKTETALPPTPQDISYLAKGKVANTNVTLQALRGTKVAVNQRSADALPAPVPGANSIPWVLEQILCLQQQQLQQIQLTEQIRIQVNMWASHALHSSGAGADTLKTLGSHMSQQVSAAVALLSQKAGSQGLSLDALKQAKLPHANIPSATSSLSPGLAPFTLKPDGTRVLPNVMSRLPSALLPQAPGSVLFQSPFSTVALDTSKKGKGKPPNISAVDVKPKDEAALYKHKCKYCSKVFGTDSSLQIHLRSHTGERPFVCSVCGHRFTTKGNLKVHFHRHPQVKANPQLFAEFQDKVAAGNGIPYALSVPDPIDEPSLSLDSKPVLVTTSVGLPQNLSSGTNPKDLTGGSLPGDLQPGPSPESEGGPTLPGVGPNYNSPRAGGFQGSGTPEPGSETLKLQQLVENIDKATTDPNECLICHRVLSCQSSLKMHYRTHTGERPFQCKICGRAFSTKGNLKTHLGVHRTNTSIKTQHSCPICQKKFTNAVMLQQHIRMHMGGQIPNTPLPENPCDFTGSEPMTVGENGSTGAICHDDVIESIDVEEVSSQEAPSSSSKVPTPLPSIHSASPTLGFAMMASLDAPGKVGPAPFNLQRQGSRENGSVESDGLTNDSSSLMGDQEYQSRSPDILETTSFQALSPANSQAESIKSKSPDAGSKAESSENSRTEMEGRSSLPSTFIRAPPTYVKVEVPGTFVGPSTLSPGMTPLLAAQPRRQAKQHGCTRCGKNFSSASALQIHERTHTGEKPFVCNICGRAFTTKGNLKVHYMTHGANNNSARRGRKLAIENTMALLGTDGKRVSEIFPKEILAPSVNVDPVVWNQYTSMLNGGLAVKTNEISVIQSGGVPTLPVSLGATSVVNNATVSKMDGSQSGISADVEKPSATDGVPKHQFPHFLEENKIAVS
Method: universal PBM
Form: double-stranded DNA, one strand shown
Matrix: in vitro
Tested at: 600 nM
Notes: 8-mer, flanks averaged, mean of replicates
Direction: higher = stronger binding
Quantity: E-score
Oligonucleotide = AGACGTAG; value = 0.0222
Oligonucleotide = AACATACT; value = 0.147
Oligonucleotide = GGCGGAAA; value = -0.016
Oligonucleotide = GCTAACTA; value = 0.11
Oligonucleotide = ATCGTAAA; value = 0.219
Oligonucleotide = ACCCCTAA; value = -0.222
Oligonucleotide = GGCCGCGA; value = -0.35
Oligonucleotide = CAAGCAAG; value = -0.152
Oligonucleotide = CCATGTAG; value = 0.00281
Oligonucleotide = ATTATTCG; value = 0.372
Oligonucleotide = CGATTGGC; value = -0.0435
Oligonucleotide = ATCTATCG; value = 0.109
Oligonucleotide = AGATTCAC; value = -0.113
Oligonucleotide = AGACCGAA; value = -0.035
Oligonucleotide = AATAAATT; value = 0.406
Oligonucleotide = ACGTACAC; value = 0.0519
Oligonucleotide = ATCGGTCA; value = 0.00588
Oligonucleotide = ACGTTAGA; value = 0.16
Oligonucleotide = AAAAGTTT; value = 0.229
Oligonucleotide = ATCTGCCC; value = -0.279
Oligonucleotide = AGGTCTTA; value = 0.0264
Oligonucleotide = ATTAGAGA; value = 0.168

Sample 2
Target: TATA-box-binding protein 1 (TBP1, Arabidopsis thaliana, UniProt P28147, residues 1-200, full length assumed)
Method: protein-binding microarray
Form: double-stranded DNA, one strand shown
Matrix: in vitro
Tested at: not given
Notes: k-mer, scored over probes, only values ≥0.25
Direction: higher = stronger binding
Quantity: E-score
Residues (chain): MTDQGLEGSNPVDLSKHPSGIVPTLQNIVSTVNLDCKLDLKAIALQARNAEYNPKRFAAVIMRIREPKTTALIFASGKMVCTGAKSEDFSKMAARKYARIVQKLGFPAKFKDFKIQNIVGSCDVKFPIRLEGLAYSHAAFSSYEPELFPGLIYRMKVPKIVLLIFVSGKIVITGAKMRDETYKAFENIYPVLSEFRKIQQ
Oligonucleotide = TAAGATA; value = 0.314
Oligonucleotide = CATATAC; value = 0.337
Oligonucleotide = GCTTATA; value = 0.437
Oligonucleotide = AAGATAA; value = 0.32
Oligonucleotide = ATATCAA; value = 0.323
Oligonucleotide = TATGTAA; value = 0.315
Oligonucleotide = AATATCG; value = 0.278
Oligonucleotide = ATTAAGA; value = 0.263
Oligonucleotide = ATACCAA; value = 0.279
Oligonucleotide = AATAATG; value = 0.274
Oligonucleotide = AACAAAA; value = 0.26
Oligonucleotide = TTATCAA; value = 0.331
Oligonucleotide = AATACAC; value = 0.276
Oligonucleotide = GTTAATA; value = 0.343
Oligonucleotide = TATTCAA; value = 0.257
Oligonucleotide = ATTAAAA; value = 0.419
Oligonucleotide = ATAAGAT; value = 0.361
Oligonucleotide = CCTAATA; value = 0.284
Oligonucleotide = ATATCTG; value = 0.287
Oligonucleotide = AGAATAA; value = 0.309
Oligonucleotide = CGCATAA; value = 0.271
Oligonucleotide = ATATTAC; value = 0.407
Oligonucleotide = ATAAGAA; value = 0.332
Oligonucleotide = ATAAGAC; value = 0.274
Oligonucleotide = GCTTTAA; value = 0.283

Sample 3
Target: Interferon regulatory factor 5, full length, phosphomimetic (IRF5, Homo sapiens, UniProt Q13568-2, residues 1-514, K96S/S451D/S453D/S456D/S462D)
Method: protein-binding microarray
Form: double-stranded DNA, one strand shown
Matrix: in vitro
Tested at: 250 nM
Notes: 60-bp whole probe
With: salmon DNA 0.4 mg/ml
Baseline: random background probes
Direction: higher = stronger binding
Quantity: log fluorescence
Constant ends, left off below: GCCTAGCAC … GTCTTGATTCGCTTGACGCTGCTG
Oligonucleotide = GCCGATTCCAGTTTCGAGACGTGCTAG; value = 5.75 z-score
Oligonucleotide = TCAGCTTCTTTTTTATTACTGTGCTAG; value = 0.682 z-score
Oligonucleotide = TTTGCTCTGTGCATAGTTCTGTGCTAG; value = -0.187 z-score
Oligonucleotide = GACGATCTCTGTCTCGAGACGTGCTAG; value = -0.129 z-score
Oligonucleotide = TTAGATTTCATACTGGATTAGTGCTAG; value = 0.869 z-score
Oligonucleotide = GACGGTATCGGAGTGGGGACGTGCTAG; value = 0.636 z-score
Oligonucleotide = GAAAATTAGTGTTTTGCCCTGTGCTAG; value = 1.11 z-score
Oligonucleotide = TTAGGTATCCTACTGCTTTAGTGCTAG; value = -0.222 z-score
Oligonucleotide = TTAGATTTCAGTATCGAATAGTGCTAG; value = 4.88 z-score
Oligonucleotide = GACGGTATCCTTATCCTGCCGTGCTAG; value = -0.0053 z-score
Oligonucleotide = GACGAACTGAGTCTGGAGACGTGCTAG; value = -0.487 z-score
Oligonucleotide = GACGGACTGAGTCTCGGGACGTGCTAG; value = -0.294 z-score
Oligonucleotide = GAGGGTTTCGGGACTGGGGACGTGCTA; value = 2.68 z-score
Oligonucleotide = TTAGGTCTTGGTATCGGTTAGTGCTAG; value = 5.92 z-score
Oligonucleotide = TTAGATTTCGGGTTTCGATTAGTGCTA; value = 8.9 z-score
Oligonucleotide = CTTTCCTTTGCTTTCTCCCAGTGCTAG; value = 2.05 z-score
Oligonucleotide = AGTATGAGTTGCCCTTTCCCGTGCTAG; value = -0.329 z-score
Oligonucleotide = TTCGGTATCCTTCTCCTTTAGTGCTAG; value = 1.38 z-score
Oligonucleotide = TCAGGTTTCCAATCAGCACTGTGCTAG; value = 0.257 z-score
Oligonucleotide = TCATGTATGGATGTGTCACTGTGCTAG; value = -0.0313 z-score
Oligonucleotide = GACCGTTTCGGACTGGGGACGTGCTAG; value = 2.61 z-score
Oligonucleotide = TTAGGTTTCGGGACTGGGATAGTGCTA; value = 6.39 z-score
Oligonucleotide = TCAAGTCCCAAGAATGGTACTGTGCTA; value = -0.0972 z-score

Sample 4
Target: CCNB2, cyclin fold, Cln2 fusion (human)
Method: yeast growth competition, sequencing
Matrix: yeast
Notes: weak parent motif
Baseline: not given
Direction: higher = stronger binding
Quantity: normalised enrichment score
Starting sequence: CDKN1B docking peptide (human); PSACRNLFGPVDH; partner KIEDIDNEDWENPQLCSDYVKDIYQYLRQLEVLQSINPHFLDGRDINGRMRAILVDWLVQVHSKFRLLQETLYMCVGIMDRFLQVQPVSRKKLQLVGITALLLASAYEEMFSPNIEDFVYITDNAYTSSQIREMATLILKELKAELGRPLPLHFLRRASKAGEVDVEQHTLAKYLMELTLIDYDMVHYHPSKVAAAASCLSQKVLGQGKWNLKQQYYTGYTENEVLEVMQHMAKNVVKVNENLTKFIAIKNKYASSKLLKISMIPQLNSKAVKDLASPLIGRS
Substitution = P10K; value = -0.101
Substitution = R5E; value = -0.17
Substitution = D12I; value = -0.063
Substitution = L7E; value = -0.0783
Substitution = A3S; value = -0.0096
Substitution = F8A; value = -0.0651
Substitution = H13A; value = -0.101
Substitution = P1D; value = -0.627
Substitution = S2H; value = -0.294
Substitution = G9A; value = 0.277
Substitution = P1G; value = 0.0399
Substitution = L7Q; value = 0.0998
Substitution = P10F; value = 0.0925
Substitution = C4Y; value = 0.384
Substitution = H13V; value = -0.301
Substitution = R5P; value = -0.338
Substitution = P10A; value = -0.134
Substitution = N6I; value = -0.0386
Substitution = F8S; value = 0.349
Substitution = A3H; value = -0.196
Substitution = D12Q; value = 0.54
Substitution = F8R; value = 0.477
Substitution = L7I; value = 0.355

Sample 5
Target: ABI1, truncated, D143A, DHFR fusion (Arabidopsis thaliana)
Method: DHFR PCA, deep sequencing
Matrix: yeast
Notes: methotrexate growth selection, single substitutions
With: (+)-ABA 17 µM
Baseline: wild-type fitted maximum
Direction: higher = stronger binding
Quantity: relative binding score
Starting sequence: PYL1, truncated, DHFR fusion (Arabidopsis thaliana); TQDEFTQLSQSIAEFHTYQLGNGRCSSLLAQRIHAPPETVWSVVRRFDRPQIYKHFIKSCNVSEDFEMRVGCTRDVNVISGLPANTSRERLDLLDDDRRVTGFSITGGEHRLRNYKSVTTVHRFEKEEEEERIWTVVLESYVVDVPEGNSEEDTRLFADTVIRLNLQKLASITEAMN; partner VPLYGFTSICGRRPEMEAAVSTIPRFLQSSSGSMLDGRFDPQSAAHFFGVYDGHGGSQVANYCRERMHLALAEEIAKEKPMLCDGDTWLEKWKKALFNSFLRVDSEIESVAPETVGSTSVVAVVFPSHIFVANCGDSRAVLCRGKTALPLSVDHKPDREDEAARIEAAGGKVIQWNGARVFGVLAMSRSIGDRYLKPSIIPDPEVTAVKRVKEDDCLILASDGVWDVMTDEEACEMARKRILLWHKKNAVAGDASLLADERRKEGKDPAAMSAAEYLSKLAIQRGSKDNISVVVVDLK
Substitution = R88E; value = 78%
Substitution = K126V; value = 92.2%
Substitution = E67N; value = 80.6%
Substitution = P36L; value = 67.2%
Substitution = H34T; value = 62.2%
Substitution = S104A; value = 29.8%
Substitution = F15D; value = 5.51%
Substitution = R132N; value = 98%
Substitution = E89I; value = -0.522%
Substitution = R45I; value = -9.75%
Substitution = D92W; value = 15.8%

Sample 6
Target: Prothrombin, mature alpha-thrombin (F2, Homo sapiens, UniProt P00734)
Method: aptamer microarray, sandwich
Form: DNA with 2'F-ANA
Matrix: in vitro
Tested at: 200 nM
Notes: whole 15-mer aptamer, many near background
With: Cy3 exosite-II aptamer, 400 nM
Direction: higher = stronger binding
Quantity: mean fluorescence intensity
Oligonucleotide: GGTTGGTGTGGTTGG
Modification = 2'F-ANA at 1 3 4 7 9 11 13 14; value = 64.6 a.u.
Modification = 2'F-ANA at 1 2 3 4 5 9 12 13 14 15; value = 44.7 a.u.
Modification = 2'F-ANA at 2 3 4 7 11 13 15; value = 465 a.u.
Modification = 2'F-ANA at 1 2 5 6 8 10 11 13 14; value = 47.8 a.u.
Modification = 2'F-ANA at 3 4 8 11 12 14; value = 397 a.u.
Modification = 2'F-ANA at 1 2 5 7 9 11 14 15; value = 44.6 a.u.
Modification = 2'F-ANA at 3 4 7 8 12; value = 1280 a.u.
Modification = 2'F-ANA at 1 2 4 8 9 13 14 15; value = 95.3 a.u.
Modification = 2'F-ANA at 2 3 4 5 6 7 11 12 13; value = 101 a.u.
Modification = 2'F-ANA at 3 5 13 14; value = 55.4 a.u.
Modification = 2'F-ANA at 4 5 6 9 10 12 13 15; value = 230 a.u.
Modification = 2'F-ANA at 1 2 3 6 8 10 11 13 14 15; value = 66.9 a.u.
Modification = 2'F-ANA at 1 2 5 6 8 9 10 15; value = 47.5 a.u.
Modification = 2'F-ANA at 1 4 5 6 7 8 12 13 14; value = 45.3 a.u.
Modification = 2'F-ANA at 3 5 6 7 9 11 14; value = 48.3 a.u.
Modification = 2'F-ANA at 5 6 7 9 12 13; value = 93.3 a.u.
Modification = 2'F-ANA at 2 3 4 6 8 9 10 13 15; value = 176 a.u.
Modification = 2'F-ANA at 2 7 11 14; value = 175 a.u.
Modification = 2'F-ANA at 3 5 7 8 9 12 14; value = 64.6 a.u.
Modification = 2'F-ANA at 2 6 8 9 12 13 15; value = 485 a.u.
Modification = 2'F-ANA at 1 2 5 6 10 11 12; value = 58.6 a.u.
Modification = 2'F-ANA at 5 6 8 10 12 14; value = 54.7 a.u.
Modification = 2'F-ANA at 2 3 5 6 7 10 14; value = 101 a.u.
Modification = 2'F-ANA at 2 3 6 8 9 10 11 13 14; value = 231 a.u.

Single results of other studies
Substance = PhoQ, residues 284 288 289 292 302 303 ALAMYF; target = PhoP, residues 12 14 15 18 19 TPLRH (Escherichia coli, UniProt P23836); test = Sort-seq, measured: YFP reporter; test system = E. coli; conditions = PhoQ-PhoP variant library, with: 10 µM Mg2+; how to read = baseline: high Mg2+ state, higher = stronger signaling; quantity = fold induction; value = 5.78

Excerpt of the above (sample 2):
Oligonucleotide = GCTTTAA; value = 0.283
Oligonucleotide = AAGATAA; value = 0.32
Oligonucleotide = AACAAAA; value = 0.26
Oligonucleotide = GCTTATA; value = 0.437
Oligonucleotide = CCTAATA; value = 0.284
Oligonucleotide = ATATCTG; value = 0.287
Oligonucleotide = TATTCAA; value = 0.257
Oligonucleotide = AATACAC; value = 0.276
Oligonucleotide = TATGTAA; value = 0.315
Oligonucleotide = CGCATAA; value = 0.271
Oligonucleotide = ATAAGAT; value = 0.361
Oligonucleotide = TAAGATA; value = 0.314
